{"data": "Measured values from different studies", "note": "Lines come from different studies, so protocols differ.", "chain of UniProt P10398 (whole entry, unmodified, looked up)": "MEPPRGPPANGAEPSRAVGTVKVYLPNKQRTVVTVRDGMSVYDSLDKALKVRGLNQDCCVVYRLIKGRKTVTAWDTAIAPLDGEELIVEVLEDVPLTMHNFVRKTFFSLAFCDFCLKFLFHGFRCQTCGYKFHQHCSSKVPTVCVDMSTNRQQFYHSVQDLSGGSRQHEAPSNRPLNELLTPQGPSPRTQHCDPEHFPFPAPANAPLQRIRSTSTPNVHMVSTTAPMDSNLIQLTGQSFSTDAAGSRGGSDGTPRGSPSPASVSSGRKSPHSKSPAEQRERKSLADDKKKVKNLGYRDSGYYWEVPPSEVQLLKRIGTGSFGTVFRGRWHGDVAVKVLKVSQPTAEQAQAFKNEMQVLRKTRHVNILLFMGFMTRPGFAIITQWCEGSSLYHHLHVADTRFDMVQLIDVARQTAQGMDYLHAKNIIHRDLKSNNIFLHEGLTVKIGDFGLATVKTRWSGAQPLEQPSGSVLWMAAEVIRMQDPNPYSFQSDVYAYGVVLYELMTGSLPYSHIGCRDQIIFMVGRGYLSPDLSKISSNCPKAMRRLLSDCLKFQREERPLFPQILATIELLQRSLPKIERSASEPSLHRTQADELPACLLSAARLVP", "chain of UniProt Q9Y616 (whole entry, looked up)": "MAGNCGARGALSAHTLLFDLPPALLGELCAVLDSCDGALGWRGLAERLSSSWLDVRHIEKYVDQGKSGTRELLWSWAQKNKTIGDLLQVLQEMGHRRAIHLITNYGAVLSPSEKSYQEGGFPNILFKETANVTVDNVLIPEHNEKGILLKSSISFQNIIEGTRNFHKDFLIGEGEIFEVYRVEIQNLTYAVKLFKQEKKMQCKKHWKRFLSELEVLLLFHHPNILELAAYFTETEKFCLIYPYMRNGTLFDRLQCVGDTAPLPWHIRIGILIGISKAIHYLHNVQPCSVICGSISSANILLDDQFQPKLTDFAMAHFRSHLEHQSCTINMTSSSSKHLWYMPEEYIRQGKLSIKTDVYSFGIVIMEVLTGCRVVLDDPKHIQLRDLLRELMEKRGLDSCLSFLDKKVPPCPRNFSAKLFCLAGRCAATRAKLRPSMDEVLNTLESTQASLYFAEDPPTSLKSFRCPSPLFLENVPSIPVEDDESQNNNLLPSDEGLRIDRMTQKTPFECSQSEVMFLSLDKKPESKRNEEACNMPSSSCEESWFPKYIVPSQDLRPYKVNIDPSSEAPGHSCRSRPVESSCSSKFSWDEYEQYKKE", "chain of UniProt P29320 (whole entry, looked up)": "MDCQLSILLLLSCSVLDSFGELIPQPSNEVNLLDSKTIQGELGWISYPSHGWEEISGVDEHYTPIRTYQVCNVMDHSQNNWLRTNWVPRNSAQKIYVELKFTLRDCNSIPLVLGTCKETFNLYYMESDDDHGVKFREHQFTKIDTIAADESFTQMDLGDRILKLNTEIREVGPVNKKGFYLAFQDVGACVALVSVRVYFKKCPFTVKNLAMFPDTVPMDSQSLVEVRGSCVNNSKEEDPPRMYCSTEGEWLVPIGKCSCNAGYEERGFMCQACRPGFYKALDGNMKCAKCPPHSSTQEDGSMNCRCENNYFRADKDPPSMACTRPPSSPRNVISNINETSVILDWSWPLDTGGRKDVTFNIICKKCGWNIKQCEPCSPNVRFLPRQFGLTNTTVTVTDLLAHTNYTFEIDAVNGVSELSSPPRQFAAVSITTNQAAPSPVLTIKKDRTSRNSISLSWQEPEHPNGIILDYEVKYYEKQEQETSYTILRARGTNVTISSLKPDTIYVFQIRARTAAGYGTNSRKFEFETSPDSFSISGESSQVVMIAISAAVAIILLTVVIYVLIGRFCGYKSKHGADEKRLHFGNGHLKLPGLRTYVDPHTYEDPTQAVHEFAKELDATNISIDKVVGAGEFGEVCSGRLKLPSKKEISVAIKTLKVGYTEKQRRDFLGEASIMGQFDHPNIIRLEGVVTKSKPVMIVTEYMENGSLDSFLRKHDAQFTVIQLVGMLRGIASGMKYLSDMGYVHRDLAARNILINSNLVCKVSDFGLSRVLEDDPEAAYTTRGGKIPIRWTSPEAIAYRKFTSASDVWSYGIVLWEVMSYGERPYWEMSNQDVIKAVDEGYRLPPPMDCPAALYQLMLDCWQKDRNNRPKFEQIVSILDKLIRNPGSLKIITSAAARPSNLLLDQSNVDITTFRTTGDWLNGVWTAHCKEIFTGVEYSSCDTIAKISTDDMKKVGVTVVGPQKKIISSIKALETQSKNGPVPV", "chain of UniProt P48736 (whole entry, looked up)": "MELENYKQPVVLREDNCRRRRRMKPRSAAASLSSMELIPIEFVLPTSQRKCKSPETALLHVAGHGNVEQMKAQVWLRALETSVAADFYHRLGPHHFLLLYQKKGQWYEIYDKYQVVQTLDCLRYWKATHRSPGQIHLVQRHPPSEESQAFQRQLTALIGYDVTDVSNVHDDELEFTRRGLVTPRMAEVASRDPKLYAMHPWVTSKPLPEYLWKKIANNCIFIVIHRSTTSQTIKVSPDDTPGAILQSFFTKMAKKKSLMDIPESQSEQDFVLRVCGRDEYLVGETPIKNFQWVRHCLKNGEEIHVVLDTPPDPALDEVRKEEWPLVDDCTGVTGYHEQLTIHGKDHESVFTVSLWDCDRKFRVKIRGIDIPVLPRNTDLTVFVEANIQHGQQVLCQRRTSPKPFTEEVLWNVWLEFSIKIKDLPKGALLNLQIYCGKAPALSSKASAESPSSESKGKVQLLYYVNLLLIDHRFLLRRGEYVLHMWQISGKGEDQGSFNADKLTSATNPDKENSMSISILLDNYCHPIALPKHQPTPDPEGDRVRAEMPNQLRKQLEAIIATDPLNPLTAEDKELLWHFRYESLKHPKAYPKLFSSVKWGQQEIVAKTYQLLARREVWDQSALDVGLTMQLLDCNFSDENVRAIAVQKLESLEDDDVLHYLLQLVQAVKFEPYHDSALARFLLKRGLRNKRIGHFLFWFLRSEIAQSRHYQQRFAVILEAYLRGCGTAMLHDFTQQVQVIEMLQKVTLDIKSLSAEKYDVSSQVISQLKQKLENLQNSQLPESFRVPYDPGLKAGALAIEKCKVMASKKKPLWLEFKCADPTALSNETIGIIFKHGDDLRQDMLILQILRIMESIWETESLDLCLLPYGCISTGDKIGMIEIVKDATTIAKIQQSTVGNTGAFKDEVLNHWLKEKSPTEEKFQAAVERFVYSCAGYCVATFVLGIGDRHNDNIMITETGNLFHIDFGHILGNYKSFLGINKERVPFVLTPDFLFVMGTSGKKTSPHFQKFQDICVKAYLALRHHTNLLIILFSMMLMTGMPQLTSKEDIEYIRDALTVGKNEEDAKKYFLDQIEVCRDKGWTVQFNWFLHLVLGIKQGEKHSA", "chain of UniProt P14616 (whole entry, looked up)": "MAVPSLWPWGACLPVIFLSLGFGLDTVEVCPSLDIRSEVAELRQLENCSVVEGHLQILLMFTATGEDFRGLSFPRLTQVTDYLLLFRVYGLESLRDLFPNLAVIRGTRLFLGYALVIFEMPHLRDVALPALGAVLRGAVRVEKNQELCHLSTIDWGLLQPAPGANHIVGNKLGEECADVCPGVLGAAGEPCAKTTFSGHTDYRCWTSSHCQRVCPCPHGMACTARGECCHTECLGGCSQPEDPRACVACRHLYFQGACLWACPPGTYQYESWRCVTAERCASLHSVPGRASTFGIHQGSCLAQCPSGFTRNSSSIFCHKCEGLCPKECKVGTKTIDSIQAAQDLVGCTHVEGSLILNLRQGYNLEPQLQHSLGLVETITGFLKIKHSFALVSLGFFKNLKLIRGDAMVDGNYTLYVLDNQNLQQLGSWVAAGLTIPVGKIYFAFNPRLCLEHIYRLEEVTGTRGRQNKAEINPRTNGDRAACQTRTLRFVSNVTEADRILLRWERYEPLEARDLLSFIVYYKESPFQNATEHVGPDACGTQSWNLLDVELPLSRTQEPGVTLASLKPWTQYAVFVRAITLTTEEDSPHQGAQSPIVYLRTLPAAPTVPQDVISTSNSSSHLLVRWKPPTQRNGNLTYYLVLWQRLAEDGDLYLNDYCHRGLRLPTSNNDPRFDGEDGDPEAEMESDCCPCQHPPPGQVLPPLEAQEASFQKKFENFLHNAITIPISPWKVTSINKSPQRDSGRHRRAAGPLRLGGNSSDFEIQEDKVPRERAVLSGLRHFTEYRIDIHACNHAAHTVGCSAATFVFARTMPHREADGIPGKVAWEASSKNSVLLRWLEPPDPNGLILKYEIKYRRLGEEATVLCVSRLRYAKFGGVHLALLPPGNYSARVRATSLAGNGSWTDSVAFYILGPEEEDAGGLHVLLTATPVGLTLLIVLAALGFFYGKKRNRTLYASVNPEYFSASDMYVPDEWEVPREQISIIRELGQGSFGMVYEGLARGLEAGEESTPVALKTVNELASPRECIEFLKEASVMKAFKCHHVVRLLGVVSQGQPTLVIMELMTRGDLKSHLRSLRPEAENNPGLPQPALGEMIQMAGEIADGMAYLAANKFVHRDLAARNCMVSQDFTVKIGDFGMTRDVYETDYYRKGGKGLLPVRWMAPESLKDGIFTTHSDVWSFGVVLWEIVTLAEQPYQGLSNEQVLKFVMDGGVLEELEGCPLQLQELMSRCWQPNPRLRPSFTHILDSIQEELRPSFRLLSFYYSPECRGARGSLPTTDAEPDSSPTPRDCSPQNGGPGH", "chain of UniProt Q00535 (whole entry, looked up)": "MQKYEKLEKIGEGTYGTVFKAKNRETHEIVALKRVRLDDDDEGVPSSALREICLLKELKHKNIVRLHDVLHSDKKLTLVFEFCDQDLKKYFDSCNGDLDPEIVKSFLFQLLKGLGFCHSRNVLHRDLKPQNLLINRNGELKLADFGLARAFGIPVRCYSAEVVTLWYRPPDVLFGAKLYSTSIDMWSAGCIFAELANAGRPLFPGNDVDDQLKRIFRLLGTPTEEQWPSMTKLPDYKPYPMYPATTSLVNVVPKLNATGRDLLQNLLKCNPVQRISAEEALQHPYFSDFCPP"}
{"SMILES": "COc1cc(-c2cncc3c2CN(C)Cc2cc(N4CCNCC4)ccc2-3)cc(OC)c1OC", "tested on": "Ephrin type-A receptor 3 (EPHA3, Homo sapiens, UniProt P29320)", "test": "enzyme activity, inhibitor", "setting": "1 µM", "measurement": "remaining activity", "value": "109%"}
{"SMILES": "Cc1noc(NS(=O)(=O)c2ccc(N=NN(O)c3ccccc3)cc2)c1C", "test": "DPPH scavenging, absorbance", "setting": "240 µg/mL", "measurement": "inhibition", "value": "24.1%"}
{"SMILES": "C=CC(=O)N1CCC(COCC(=O)N2CCN(c3nc(-c4cnc(N)nc4C(F)F)nc(N4CCOC[C@@H]4C)n3)CC2)CC1", "tested on": "Tyrosine-protein kinase ABL1, phosphorylated (ABL1, Homo sapiens, UniProt P00519, Q252H)", "test": "binding, competition with immobilised ligand", "setting": "1 µM", "measurement": "remaining binding", "value": "72%"}
{"SMILES": "O=c1nc(N2CCN(CC3CCCCC3)CC2)sc2c([N+](=O)[O-])cc(C(F)(F)F)cc12", "system": "CD-1 mouse, lung", "setting": "intravenous, 10 mg/kg, 4.98 min", "measurement": "concentration", "value": "4210 ng/mL"}
{"SMILES": "Cc1cc([C@@H](C)Nc2ccccc2C(=O)O)c2nc(N3CCC(F)(F)CC3)c(C#N)c(=O)n2c1", "tested on": "Phosphatidylinositol 4,5-bisphosphate 3-kinase catalytic subunit gamma isoform (PIK3CG, Homo sapiens, UniProt P48736)", "test": "binding, competition with immobilised ligand", "setting": "10 µM", "measurement": "remaining binding", "value": "82%"}
{"SMILES": "CCN(O)N=Nc1ccc(S(=O)(=O)Nc2cc(C)on2)cc1", "test": "DPPH scavenging, absorbance", "setting": "240 µg/mL", "measurement": "inhibition", "value": "38.7%"}
{"SMILES": "CNc1ncc2c(/C=C/C(=O)N3CCC(OC)CC3)nn(Cc3cccc(C(F)(F)F)c3)c2n1", "tested on": "Serine/threonine-protein kinase A-Raf (ARAF, Homo sapiens, UniProt P10398, Y301D/Y302D)", "test": "enzyme activity, inhibitor, radiometric", "setting": "1 µM", "measurement": "remaining activity", "value": "95%"}
{"SMILES": "Nc1ncnc2occ(-c3ccc(NC(=O)Nc4cc(C(F)(F)F)ccc4F)cc3)c12", "tested on": "Receptor-type tyrosine-protein kinase FLT3 (FLT3, Homo sapiens, UniProt P36888, K663Q)", "test": "cell-free assay, inhibitor", "setting": "20 µM", "measurement": "remaining signal", "value": "6.3%"}
{"SMILES": "C1=C/COCc2cc(ccc2OCCN2CCCC2)Nc2nccc(n2)-c2cccc(c2)COC/1", "tested on": "Interleukin-1 receptor-associated kinase 3 (IRAK3, Homo sapiens, UniProt Q9Y616)", "test": "binding", "setting": "0.1 µM", "measurement": "remaining binding", "value": "12%"}
{"SMILES": "CCCCC(=O)Nc1ccc(-c2ccc3ncn(CCC)c(=O)c3c2)cn1", "tested on": "Insulin receptor-related protein (INSRR, Homo sapiens, UniProt P14616)", "test": "binding, competition with immobilised ligand", "setting": "0.5 µM", "measurement": "remaining binding", "value": "90%"}
{"SMILES": "CC[C@H](C)[C@H](NC(=O)[C@H](CCC(N)=O)NC(=O)[C@@H](NC(=O)[C@H](CCSC)NC(=O)[C@H](CCCCN)NC(=O)[C@H](CO)NC(=O)[C@@H](NC(=O)[C@H](CCSC)NC(=O)[C@H](CC(C)C)NC(=O)[C@H](CC(N)=O)NC(=O)[C@@H](NC(=O)[C@@H](NC(=O)[C@H](CO)NC(=O)[C@H](CC(C)C)NC(=O)[C@H](C)NC(=O)[C@H](CCCNC(=N)N)NC(=O)[C@H](CCC(=O)O)NC(=O)[C@H](Cc1ccc(O)cc1)NC(=O)[C@H](Cc1ccccc1)NC(=O)[C@H](C)NC(=O)[C@H](CC(N)=O)NC(=O)[C@@H](N)CCCCN)[C@@H](C)CC)[C@@H](C)CC)[C@@H](C)O)C(C)C)C(=O)N[C@@H](CC(N)=O)C(=O)N[C@H](C(=O)O)C(C)C", "tested on": "Cyclin-dependent kinase 5, with p35 (CDK5, Homo sapiens, UniProt Q00535)", "test": "enzyme activity, inhibitor, radiometric", "setting": "500 µM", "measurement": "inhibition", "value": "84%"}
{"SMILES": "COc1cccc(OC)c1-c1cc(C(=O)NC2(C(=O)O)C3CC4CC(C3)CC2C4)nn1-c1ccc(C(=O)N(C)CCCN(C)CCCN(C)C(=O)CN2CCN(CC(=O)[O-])CCN(CC(=O)[O-])CCN(CC(=O)[O-])CC2)cc1C(C)C.[177Lu+3] (stereo not drawn)", "tested on": "HT-29 tumour model", "system": "host not given, bone", "setting": "24 h, tumour-bearing", "measurement": "tracer uptake", "value": "0.101 %ID/g"}
{"note": "Repeated from above:"}
{"SMILES": "C1=C/COCc2cc(ccc2OCCN2CCCC2)Nc2nccc(n2)-c2cccc(c2)COC/1", "tested on": "Interleukin-1 receptor-associated kinase 3 (IRAK3, Homo sapiens, UniProt Q9Y616)", "test": "binding", "setting": "0.1 µM", "measurement": "remaining binding", "value": "12%"}
{"SMILES": "CCCCC(=O)Nc1ccc(-c2ccc3ncn(CCC)c(=O)c3c2)cn1", "tested on": "Insulin receptor-related protein (INSRR, Homo sapiens, UniProt P14616)", "test": "binding, competition with immobilised ligand", "setting": "0.5 µM", "measurement": "remaining binding", "value": "90%"}
